Measurements collected from several papers.
Each numbered part is a random draw from the data of one study; scales do not carry over between parts. Substitutions count along the parent as printed.

Set 1
Target: CCNB1, cyclin fold, Cln2 fusion (human)
Technique: yeast growth competition, sequencing
Sample: yeast
Notes: strong parent motif
Baseline: not given
Direction: higher = stronger binding
Starting sequence: MICAL3 docking peptide (human); LQLRRQLSFSEDS
`R4G` — result for “normalised enrichment score”: 0.637.
`D12H`: “normalised enrichment score” 3.88.
`L3P` — result for “normalised enrichment score”: 2.8.
For `L3F`, “normalised enrichment score” read 2.41.
For `E11A`, “normalised enrichment score” read 3.15.
Under “normalised enrichment score”, `Q2L` is recorded as 4.36.
For `L3V`, “normalised enrichment score” read 5.59.
`Q6H` — result for “normalised enrichment score”: 2.67.
For `R4L`, “normalised enrichment score” read 0.859.
Under “normalised enrichment score”, `R4C` is recorded as 5.12.
`R5I` — result for “normalised enrichment score”: 0.404.
`S10P` — result for “normalised enrichment score”: 2.96.
Under “normalised enrichment score”, `E11T` is recorded as 3.07.
For `R5C`, “normalised enrichment score” read 0.752.
`D12S` — result for “normalised enrichment score”: 4.08.
Under “normalised enrichment score”, `Q2M` is recorded as 4.29.
`F9Y`: “normalised enrichment score” 3.76.

Set 2
Target: Ras GTPase-activating protein-binding protein 1, RRM domain (G3BP1, Homo sapiens, UniProt Q13283)
Sequence of UniProt Q13283 (whole entry, looked up): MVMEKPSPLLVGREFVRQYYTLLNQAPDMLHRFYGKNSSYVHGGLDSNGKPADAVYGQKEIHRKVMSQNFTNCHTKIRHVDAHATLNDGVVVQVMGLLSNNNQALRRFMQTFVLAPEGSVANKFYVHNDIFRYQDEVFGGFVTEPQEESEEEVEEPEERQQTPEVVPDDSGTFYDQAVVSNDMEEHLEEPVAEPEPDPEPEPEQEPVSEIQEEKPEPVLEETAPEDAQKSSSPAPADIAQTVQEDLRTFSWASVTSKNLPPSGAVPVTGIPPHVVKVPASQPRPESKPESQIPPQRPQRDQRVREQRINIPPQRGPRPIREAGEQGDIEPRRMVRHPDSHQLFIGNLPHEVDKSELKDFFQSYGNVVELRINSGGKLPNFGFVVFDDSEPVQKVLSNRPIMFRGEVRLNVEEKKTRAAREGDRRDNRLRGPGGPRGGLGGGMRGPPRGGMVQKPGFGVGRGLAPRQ
Technique: RNA Bind-n-Seq
Molecule type: RNA
Sample: in vitro
Tested at: 1 µM
Notes: whole 134-nt RNA, ends assumed
Together with: 150 mM KCl
Baseline: input library
Direction: higher = stronger binding
Constant ends, left off below: GGGAGUUCUACAGUCCGACGAUC … UGGAAUUCUCGGGUGUCAAGG
`CAAGUCCUGUGCUACACAUCGUAUGUACCGAAUCGGAAAGGGGAAAGGGGAAAGGGAAAGUAUUAUGUUACGCCGUUCGGAUCUGCACUU` has a log2 enrichment of 0.131.
`UGGCCCUGGUGGCAUGCGGGGAGGAAGAGGUGGCCUCAUGGAUCGUGGUGGUCCCGGUGGAAUGUUCAGAGGUGGCCGUGGUGAAGACAG` gave a log2 enrichment of 1.8.
`UGGACCUGGUGGCAUGCGGGGAGGAAGAGGUGGCCUCAUGGAUCGUGGUGGUCCCGGUGGAAUGUUCAGAGGUGGCCGUGGUGGAGACAG` has a log2 enrichment of 0.555.
`GGUUUCUGGUGAGCUUCAUGGUUGACGCCCGGGGUGGUUCCAUGAGAGGAAGUCGCCACAACGGCCUGCGAGUGGUGAUCCCGCCACGGA` gave a log2 enrichment of -0.578.
`UCCUGUGCUACACAUCGUAUGUACCGAAUCGGGGUUUUUUGGUUUUUUGGGGUUUUUUGGAAAGUAUUAUGUUACGCCGUUCGGAUCUGC` has a log2 enrichment of -0.146.
`UGGGAGGUGGAUUUUGUUUAUUUUUUUAGCUCAUUUCAAGGGGUGGGAAUUUUUUUUUAAUAUGUGUCAUGAAUAAAGUUGUUUUUGAAA` has a log2 enrichment of 2.05.
`AGUCCUGUGCUACACAUCGUAUGUACCGAAUCGGGGCCCCCGGCCCCCGGCCCCCGGGAAAGUAUUAUGUUACGCCGUUCGGAUCUGCAC` has a log2 enrichment of -0.37.
The log2 enrichment of `CCUGUGCUACACAUCGUAUGUACCGAAUCGGGGAAAAAGGGGAAAGGGGUUUUUUUGGGGAAAGUAUUAUGUUACGCCGUUCGGAUCUGC` is reported as 0.64.
`UCAAGUCCUGUGCUACACAUCGUAUGUACCGAAUCGGAAAGGAAAGGGGAAAGGAAAGUAUUAUGUUACGCCGUUCGGAUCUGCACUUCC` gave a log2 enrichment of -0.172.
`AGUCCUGUGCUACACAUCGUAUGUACCGAAUCGGGGUUUUGGGGUUUUGGGUUUUGGAAAGUAUUAUGUUACGCCGUUCGGAUCUGCACU` has a log2 enrichment of -0.297.
With `CUCAAGUCCUGUGCUACACAUCGUAUGUACCGAAUCGGGGUUGGUUGGGUUGGGAAAGUAUUAUGUUACGCCGUUCGGAUCUGCACUUCC` the log2 enrichment was 0.0356.
For `UUGACCUAGAGGAUGAGACCAUUGAUGCCGAGGUCAUGAACUCUCUAGCAGUUACUAUGGAUGACUUCCGGGUAAGGACCACACCCGUGC`, the log2 enrichment was -0.138.
For `UUUCUCUCACCAGGUACCAGGUCAUCAGUACACCAUCUGAUAUUUUCAUGGUGAUGGAAUAUGUCUCAGGAGGAGAGCUAUUUGAUUAUA`, the log2 enrichment was -0.148.
`UCCUCAAGUCCUGUGCUACACAUCGUAUGUACCGAAUCGGUUGGUUGGUUGGAAAGUAUUAUGUUACGCCGUUCGGAUCUGCACUUCCAG` has a log2 enrichment of -0.128.

Set 3
Target: Phosphate system positive regulatory protein PHO4, full length, GST-tagged (PHO4, Saccharomyces cerevisiae, UniProt P07270, residues 1-312)
Technique: competition protein-binding microarray
Molecule type: double-stranded DNA, one strand shown
Sample: in vitro
Tested at: 2 µM
Notes: whole 60-bp probe, lowest competitor level
Together with: Cbf1 competitor, 0.05 µM
Direction: higher = stronger binding
Constant ends, left off below: … GTCTTGATTCGCTTGACGCTGCTG
Construct (chain): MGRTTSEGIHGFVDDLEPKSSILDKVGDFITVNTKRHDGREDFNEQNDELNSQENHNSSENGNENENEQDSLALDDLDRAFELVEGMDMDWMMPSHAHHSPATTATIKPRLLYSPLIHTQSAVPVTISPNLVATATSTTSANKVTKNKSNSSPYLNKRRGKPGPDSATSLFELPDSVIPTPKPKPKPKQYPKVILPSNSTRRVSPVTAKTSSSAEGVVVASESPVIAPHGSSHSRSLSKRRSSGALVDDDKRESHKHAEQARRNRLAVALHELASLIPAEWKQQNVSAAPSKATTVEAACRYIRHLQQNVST
`CGTCCTAGTGATTGTCACATAACTTCCATGAGGAAG` gave a fluorescence intensity of 5020 a.u.
With `GAATTACAGTTGGATGACATGTTGAACTCAGAAAAA` the fluorescence intensity was 4920 a.u.
`ACCAATCACTTTTTCATTTTTTTTCAAAAGCTCATC` gave a fluorescence intensity of 3650 a.u.
`TGCGCAACAACTTGCGTCGTGGGTGTATGTCTAGAA` has a fluorescence intensity of 8450 a.u.
The fluorescence intensity of `ACTGGCAGCTCATTACTCGTGACGGAGCTTTAACAG` is reported as 6650 a.u.
With `CGTATGTCAGATCCTCGCATGATAAAAGAAATTATG` the fluorescence intensity was 6100 a.u.
With `AAAGTTATCAAGACCGACGTGTCCTCCTCGTCGTTC` the fluorescence intensity was 4650 a.u.
The fluorescence intensity of `TGAACCCTTTTTGAGCATGTGTCAAAATCCAATGCA` is reported as 10000 a.u.
`CATTTATTCTCTACCCATGTGGTGCCTGCCAGATCC` gave a fluorescence intensity of 11000 a.u.
`CAGCAAGTCCTTCCTCACCTGATCCTTCTCATCGTC` has a fluorescence intensity of 2830 a.u.

Set 4
Target: RNA binding protein fox-1 homolog 2, RRM domain, GST-SBP tag (RBFOX2, Homo sapiens, UniProt O43251-10, residues 100-194)
Technique: RNA Bind-n-Seq
Molecule type: RNA
Sample: in vitro
Tested at: 365 nM
Notes: natural RNA segment, single round, ends assumed
Baseline: no-protein control
Direction: higher = stronger binding
Constant ends, left off below: GGGAGUUCUACAGUCCGACGAUC … UGGAAUUCUCGGGUGCCAA
`GGCAGUGUUGUAGUUUCCCUUGAAGGAAAGCCACUAUAAAAUAAUAGCCAAGUGCCAUUUGAUCUUAAGGGGCUUACACGUAUCUCUCCAGCUCAGUCCACUGGAAUUGU`: “RBNS enrichment (R)” 0.433.
`UUCAUUCUUAUAUCUUCAUUAGUUCAUCAUAAAUCUGUCCAGUUGAGGCCUCAGGACCACGGCAUGAUUUCAUGACUCCGAAGUAUUUUACAGAAACAUUUUUUAAAUAA`: “RBNS enrichment (R)” 0.657.
`AUUUUUAAAAGCGUCUGCCUUGGUGCGCAACCACCUCCUGCAUGCUAUGCAUGCUGUUGGGACUCGUAUUACAGGGAAUGGCAUUGAGAAGCCAAGUGGGACUCACUGCU` — result for “RBNS enrichment (R)”: 0.384.
For `AUGGCGUUCUUCUGAAAGAGCCACGUUUGGGUUUUAUUUCUUUGUCACAUGAUUUCUUUUCUGGAUGGGUGCAAAGUAUCACAGGAAGUGUUUUCUCUCUGUCGCCUUGU`, “RBNS enrichment (R)” read 0.429.
`UUUUACUUAAUUCAUAGCCUUCCUUGGUUUCAUAUUUGUUUGCAUUUAAUUCAUGUUUGAGUCUCUUAACUGAUGGAUGCCCACUUGCCUUAAAGCAGCAUACUUAUUUU`: “RBNS enrichment (R)” 0.655.
`CUGCUGGCUUGUUUAUCAGGGAUAUGGGAGCUGCGGGCAUGACAGCCACAUUCUCCCAGAAGAGACAGCCACAGAUAGACUGGAACUCUCUGGCAUGUGAGUGCAUAUGU` — result for “RBNS enrichment (R)”: 16.7.
Under “RBNS enrichment (R)”, `CUGCUCUAGACUCUUACAAAAUGGCUACACUUAGCACAUACUCUGCCCUGGCUAUAUAUUAUAUUGGGCCAUAGAGAUCAGCAAUGUAUCAAUUAAUAGAUUAAUCCAGA` is recorded as 0.455.
Under “RBNS enrichment (R)”, `CUGGACGAUUCUGCUCCUCAGCUCCAAAGAAUCCUGGGGUCAACGUCCCAGGCCAGCCGCAUGGGACAUAUGUACAUAGGUCUUCGCAAUGUUCUCUUGUUACUGGUGCC` is recorded as 0.403.
`UGGCAAGGUGUAGGAGGGACCUUGAACCUGGCUGGCCAGGGCAGCAGCAGGAGUAGGUAGAGCUGUUGUUCCUUCUGGGCUGUCUCCAUCCAUCUAUACCCCUUUCAUGC` — result for “RBNS enrichment (R)”: 0.659.
For `CUCUCUCUGAAGCCAGGGCCCUUCCAUUCCAUUUAGCCUUUGGAUCAUCCUGGCUGGGAGAAGUGGGACCGAGCCACCCAGCCCCACUAUCCCCAAGCAGCCCUACAGCC`, “RBNS enrichment (R)” read 0.397.
Under “RBNS enrichment (R)”, `AAUUAUUGAAAUCCAUUUGCACCCUGUUAAGAAUGGACUUAAAAGUACUGCUGGACAGGCAUGUGUGCUCAAAGUACAUUGAUUGCUCAAAUAUAAGGAAAUGGCCCAAU` is recorded as 2.25.
Under “RBNS enrichment (R)”, `ACUGGGCUGGCCUCGAACUCAGAGAUCUGCCUGCCCUUGCUGGGAUCAGAGGUGUGCACCACCACUGCCCAGCUUGAAGUGUGUCAUUUAAAACCACUGUUUAAUAACCC` is recorded as 0.452.

Set 5
Target: Sal-like protein 4, full length isoform B (SALL4, Homo sapiens, UniProt Q9UJQ4-2, residues 1-616)
Technique: universal PBM
Molecule type: double-stranded DNA, one strand shown
Sample: in vitro
Tested at: not given
Notes: 8-mer, flanks averaged, mean of replicates
Direction: higher = stronger binding
The E-score of `CCGATGGC` is reported as -0.3.
`AGGCTGGA` gave an E-score of -0.209.
`CCTCAGCC` has an E-score of -0.189.
With `AGAGTATA` the E-score was 0.203.
`AAGGTCGA` has an E-score of 0.0492.
`AAGCATCC` has an E-score of -0.0398.
With `ACGTTAGC` the E-score was 0.0243.
With `CAGACCAC` the E-score was -0.117.
`GAGTAGGA` gave an E-score of -0.117.
`CAGAGTTA` gave an E-score of -0.0234.
For `CAAGCTCG`, the E-score was -0.206.
With `CCCGGCCC` the E-score was -0.322.
`AGTCGACA` gave an E-score of 0.124.
For `CACGGCAA`, the E-score was -0.0162.
`GAGGACCC` has an E-score of -0.259.
With `AAGTTAAG` the E-score was -0.051.
The E-score of `GCCACAGA` is reported as -0.155.
With `AACAGATT` the E-score was 0.0768.
For `CGATTAGC`, the E-score was -0.148.
`TAACACCA` gave an E-score of 0.142.
With `CAGATTAC` the E-score was 0.135.
With `CCATGGCA` the E-score was -0.156.
For `GTGGACTA`, the E-score was -0.054.
The E-score of `AAAACGGT` is reported as 0.0236.
With `ATGTCAGG` the E-score was -0.0336.

A few entries again (set 1):
`D12H`: “normalised enrichment score” 3.88.
`L3P` — result for “normalised enrichment score”: 2.8.
For `L3F`, “normalised enrichment score” read 2.41.
For `E11A`, “normalised enrichment score” read 3.15.
Under “normalised enrichment score”, `Q2L` is recorded as 4.36.
For `L3V`, “normalised enrichment score” read 5.59.
`Q6H` — result for “normalised enrichment score”: 2.67.
For `R4L`, “normalised enrichment score” read 0.859.
Under “normalised enrichment score”, `R4C` is recorded as 5.12.
`R5I` — result for “normalised enrichment score”: 0.404.
